Results from different studies.
Compare with care: the assays were run in different laboratories. Numbers after ± are the reported error.
BAZ2A eAT-hook: BAZ2A eAT-hook (Mus musculus, UniProt Q91YE5)
Chain of UniProt Q91YE5 (whole entry, looked up): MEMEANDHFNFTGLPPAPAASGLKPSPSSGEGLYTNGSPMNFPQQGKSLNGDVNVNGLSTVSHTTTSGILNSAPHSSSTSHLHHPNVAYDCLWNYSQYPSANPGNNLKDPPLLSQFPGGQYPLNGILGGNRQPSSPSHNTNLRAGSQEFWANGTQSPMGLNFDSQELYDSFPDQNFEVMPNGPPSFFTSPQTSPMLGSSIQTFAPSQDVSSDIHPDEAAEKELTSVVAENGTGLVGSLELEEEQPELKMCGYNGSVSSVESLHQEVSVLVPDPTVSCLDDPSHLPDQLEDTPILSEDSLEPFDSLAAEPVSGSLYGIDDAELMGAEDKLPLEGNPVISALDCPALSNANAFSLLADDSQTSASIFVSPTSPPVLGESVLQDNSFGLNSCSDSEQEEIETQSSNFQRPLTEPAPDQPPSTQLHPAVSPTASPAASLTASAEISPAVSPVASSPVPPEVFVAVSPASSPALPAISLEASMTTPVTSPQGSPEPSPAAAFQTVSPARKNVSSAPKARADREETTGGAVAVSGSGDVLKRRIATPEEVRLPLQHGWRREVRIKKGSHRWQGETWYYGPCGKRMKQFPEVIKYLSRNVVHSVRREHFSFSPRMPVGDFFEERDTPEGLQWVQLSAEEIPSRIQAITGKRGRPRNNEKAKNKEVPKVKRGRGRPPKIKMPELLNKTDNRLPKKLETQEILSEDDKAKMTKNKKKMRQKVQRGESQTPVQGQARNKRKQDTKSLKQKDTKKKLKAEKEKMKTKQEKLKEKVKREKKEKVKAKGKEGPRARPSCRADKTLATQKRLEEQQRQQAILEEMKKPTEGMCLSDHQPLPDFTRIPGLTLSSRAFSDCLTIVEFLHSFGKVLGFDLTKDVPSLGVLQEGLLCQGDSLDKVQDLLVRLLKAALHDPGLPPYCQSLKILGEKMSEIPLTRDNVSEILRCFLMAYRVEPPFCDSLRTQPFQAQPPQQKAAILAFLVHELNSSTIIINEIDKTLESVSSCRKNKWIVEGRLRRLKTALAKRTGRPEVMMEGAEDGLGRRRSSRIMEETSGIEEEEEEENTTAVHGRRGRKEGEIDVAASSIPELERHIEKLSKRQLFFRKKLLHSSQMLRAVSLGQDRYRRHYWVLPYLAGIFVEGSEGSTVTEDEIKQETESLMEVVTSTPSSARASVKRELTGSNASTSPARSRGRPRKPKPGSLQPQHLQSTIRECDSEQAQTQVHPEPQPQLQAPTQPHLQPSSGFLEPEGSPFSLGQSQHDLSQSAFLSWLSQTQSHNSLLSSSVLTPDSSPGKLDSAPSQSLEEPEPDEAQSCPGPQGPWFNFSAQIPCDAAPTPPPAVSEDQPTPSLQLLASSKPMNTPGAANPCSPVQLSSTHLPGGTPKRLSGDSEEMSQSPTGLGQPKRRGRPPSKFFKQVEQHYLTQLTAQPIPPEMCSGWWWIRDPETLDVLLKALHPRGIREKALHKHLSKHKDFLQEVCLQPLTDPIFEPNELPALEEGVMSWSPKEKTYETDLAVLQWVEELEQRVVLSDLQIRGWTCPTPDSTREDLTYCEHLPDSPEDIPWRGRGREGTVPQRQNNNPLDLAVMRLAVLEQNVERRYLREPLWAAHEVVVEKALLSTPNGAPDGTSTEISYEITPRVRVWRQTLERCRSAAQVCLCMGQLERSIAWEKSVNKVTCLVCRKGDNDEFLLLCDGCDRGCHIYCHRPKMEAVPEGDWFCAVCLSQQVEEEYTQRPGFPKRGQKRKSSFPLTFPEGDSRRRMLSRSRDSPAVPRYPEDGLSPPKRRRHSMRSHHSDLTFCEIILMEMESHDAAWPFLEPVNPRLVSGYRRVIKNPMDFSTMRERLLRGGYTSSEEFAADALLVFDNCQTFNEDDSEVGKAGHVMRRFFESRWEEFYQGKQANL
sigA: sigA 1-371 (Bacillus subtilis, UniProt P06224)
Chain of UniProt P06224 (whole entry, looked up): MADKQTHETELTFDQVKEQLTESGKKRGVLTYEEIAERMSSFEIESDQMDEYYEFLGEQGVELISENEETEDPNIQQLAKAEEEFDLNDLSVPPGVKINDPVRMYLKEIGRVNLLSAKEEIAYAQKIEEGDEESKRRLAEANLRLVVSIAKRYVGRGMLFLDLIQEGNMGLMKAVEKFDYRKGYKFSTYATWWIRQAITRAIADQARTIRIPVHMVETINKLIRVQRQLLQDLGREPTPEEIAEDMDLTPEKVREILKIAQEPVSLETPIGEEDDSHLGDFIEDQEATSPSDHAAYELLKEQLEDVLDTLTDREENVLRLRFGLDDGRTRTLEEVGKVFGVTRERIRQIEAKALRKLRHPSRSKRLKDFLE
T1: furA 1-165 (Synechocystis sp. PCC 6803); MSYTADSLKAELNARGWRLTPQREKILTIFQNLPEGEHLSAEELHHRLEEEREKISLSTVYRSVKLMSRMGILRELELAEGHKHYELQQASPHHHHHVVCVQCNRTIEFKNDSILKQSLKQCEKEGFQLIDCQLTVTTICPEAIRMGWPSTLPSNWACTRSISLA
B1: enzyme (Bacillus pumilus, UniProt A8FFI9); chain EARSIAWSVDEFFKNREGTFVIQEVKEKSPWVYNKKRAKERFAPQSTFKVANALIGLQTGAVRDEYDIKYWDGVKREIDNWNRDHTLGSGMRDSVVWYYQAMARDIGEERMNHWVKAIHYGNKDISGGIDQFWLSSTLRISPIEQVRFLKQLYEETLPFDLKNMRTVKRMMVQEEEKHATLYGKTGSGSDIGWYVGFIKHEHKTYILATNIKGTGIEAKDITYRILKKYHLMEASV
Chain of UniProt O60656 (whole entry, looked up): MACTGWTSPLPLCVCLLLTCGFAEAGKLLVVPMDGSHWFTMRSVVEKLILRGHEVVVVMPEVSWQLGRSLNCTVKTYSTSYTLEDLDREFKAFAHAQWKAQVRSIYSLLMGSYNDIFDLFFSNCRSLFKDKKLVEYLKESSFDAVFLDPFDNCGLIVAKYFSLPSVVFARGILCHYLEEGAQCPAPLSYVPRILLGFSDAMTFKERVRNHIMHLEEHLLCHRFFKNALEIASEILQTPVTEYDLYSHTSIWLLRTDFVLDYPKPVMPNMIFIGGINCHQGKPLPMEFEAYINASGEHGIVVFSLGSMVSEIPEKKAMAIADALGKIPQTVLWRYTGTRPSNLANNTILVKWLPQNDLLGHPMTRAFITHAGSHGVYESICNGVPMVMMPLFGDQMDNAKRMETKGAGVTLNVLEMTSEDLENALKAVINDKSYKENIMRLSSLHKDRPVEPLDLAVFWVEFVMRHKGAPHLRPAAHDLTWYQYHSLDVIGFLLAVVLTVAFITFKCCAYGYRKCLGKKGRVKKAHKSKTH
Chain of UniProt Q9US51 (whole entry, looked up): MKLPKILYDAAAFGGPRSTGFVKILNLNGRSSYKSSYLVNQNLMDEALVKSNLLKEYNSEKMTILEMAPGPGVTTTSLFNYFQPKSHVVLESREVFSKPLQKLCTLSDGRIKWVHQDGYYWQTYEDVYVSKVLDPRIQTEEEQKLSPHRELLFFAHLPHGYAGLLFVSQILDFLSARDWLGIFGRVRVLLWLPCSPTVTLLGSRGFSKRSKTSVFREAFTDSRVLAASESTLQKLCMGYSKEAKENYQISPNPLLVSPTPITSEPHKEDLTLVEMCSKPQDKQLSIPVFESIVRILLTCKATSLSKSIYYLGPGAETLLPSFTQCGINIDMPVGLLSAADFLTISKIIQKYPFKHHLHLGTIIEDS
Chain of UniProt Q9UNE7 (whole entry, looked up): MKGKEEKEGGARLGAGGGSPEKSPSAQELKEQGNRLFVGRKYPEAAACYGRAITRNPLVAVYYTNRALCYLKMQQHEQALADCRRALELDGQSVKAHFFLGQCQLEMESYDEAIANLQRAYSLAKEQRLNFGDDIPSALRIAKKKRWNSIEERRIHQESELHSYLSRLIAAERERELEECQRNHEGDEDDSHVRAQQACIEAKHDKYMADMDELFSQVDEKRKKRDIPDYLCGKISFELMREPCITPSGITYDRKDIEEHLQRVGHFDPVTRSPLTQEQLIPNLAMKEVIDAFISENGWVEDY
Chain of UniProt P19466 (whole entry, unmodified, looked up): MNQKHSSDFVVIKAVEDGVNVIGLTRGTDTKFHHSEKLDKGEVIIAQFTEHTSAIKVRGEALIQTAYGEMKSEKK

Molecule	target or system	test	test system	conditions	scale	endpoint	value
rat amylin	IAPP (Homo sapiens, UniProt P10997)	ThT fluorescence		6 molar equivalents, pH 7.2, 2% HFIP		aggregation lag time	93 min
GAGUUGAGUUGAGUUGAGUUGAGUUGAGUUGAGUUGAGUUGAGUUGAGUUGAGUU (ssRNA; single strand)	mtrB full length assumed T30V/D39V (Bacillus subtilis, UniProt P19466)	filter binding		added: L-tryptophan 1 mM		Kd	0.126 ± 0.006 µM
UGT1A9 (Homo sapiens, UniProt O60656)	O=c1cc(-c2ccccc2)oc2cc(O)cc(O)c12	steady-state kinetics		pH 7.4, 37 °C		Vmax/Km	18100 µL/min/mg
CCATGGGTTCAACCCTGCTTAACATTTCTTAATAATTTTAGTTGCTATAAATTCTCATTTATGCCCCTATAATAATTCGGGAG (dsDNA)	T1, furA 1-165 (Synechocystis sp. PCC 6803)	EMSA	double-stranded DNA, one strand shown			binding	binds
TCTTTTTTTTTTTTTTTCTTTTTTCCTCC (dsDNA)	BAZ2A eAT-hook	MST	double-stranded DNA, one strand shown	50 nM DNA		K1/2	10 ± 0.8 µM
TGTGAATAATGAGACAAGACTTATTATATCAGCCTTGATTTGCAGTGTTCCGAGGTAAATGTTTTTATTTATCTCTCGTGACGACTTTTATAATG (dsDNA)	sigA	competition with labeled DNA, competition EMSA	double-stranded DNA, one strand shown			binding	binds
human Hsc70	STUB1 (Homo sapiens, UniProt Q9UNE7)	binder, biolayer interferometry		pH 7.4, 25 °C		kon	87000 ± 4000 M⁻¹ s⁻¹
CCACCGAATGGAACAAGAGAAGATTAGGAAACGTGGTCAACGTGGTAACCAAGGAATCATGAATTTTATGGGTGACATGGATGATTTGATGGAGGAGAATGATGATTACGATGATGGTACCAAGAGCGTTGAACATTCGATGAAACGAGTCAACCTGTCAGGTGAAAACGATCCTAGCCTTGCTTCCCGCCAACCTGCTCAATCGCAACAAC (dsDNA)	mtf1 (Schizosaccharomyces pombe, UniProt Q9US51)	EMSA	double-stranded DNA, one strand shown			binding	no binding
GGGGAAUCAAAAAUUUAUUUUUUACACGGAAACGAUGCCACAGUUGACUGAACCUGUCUUCUAACAGUAGUUAAUUGCCAGUAUUUCAAACAAGAUUUGAAAUACGAGUUUCCCAGAAUAAUUUAUUUGGACAGGAUAGGAAGUCCGAUUUCUGUGUUGUCUCAAACGAGGCGAUAGAAUUGGGAUGUCGAAGAAAGUCUGCGUUAGAAUUCGAGCUGGGUACC (structured RNA (Saccharomyces cerevisiae); two hairpins)	CBF5/NOP10/GAR1/NHP2 (Saccharomyces cerevisiae)	filter binding				Kd	0.0007 ± 0.0003 µM
B1 (enzyme)	CC1(C)S[C@@H]2[C@H](NC(=O)[C@H](N)c3ccccc3)C(=O)N2[C@H]1C(=O)O	steady-state kinetics		pH 7		kcat/Km	2.1e+06 ± 300000 M⁻¹ s⁻¹
GGGAGGACAAAGAAAUACAGAUAUAUCUUAAAAAAAAAAAAGCAUUUUGUAUUAAAGAAUUUAAUUCUGAUCU (ssRNA)	SOD1 fragment G94A (Homo sapiens)	EMSA		metallated		binding	binds
GCCTGTTGTGAGCCTCCTAACCGTGCGTATTCGTACTGGAACTGATATCGATGTCCCCATGCTTATTCTTGTCTCCC (ssDNA; three predicted stem loops)	ITGA6/ITGB4 (Homo sapiens)	cell adhesion inhibition, competition	PC-3	apparent, not purified		Ki	0.123 ± 0.044 µM
CTATTTCTCCTGGTAAGGAATCATCTGGTACATTTACATCATTACCACATATTGGACATTTTAATAGTACCATGATGGATCGAATAGAAATATAAAGTAAGCAGTTGAAAAGCTTTTATGAAATAAAAGGTTCGAAATTAGTACCAAACTCTAAGCACTATAGTACTGTTTGTACTTATAACGCCCTG (dsDNA)	lysM 1-140 (Sulfolobus acidocaldarius, UniProt Q4JAQ1)	missing contact interference	double-stranded DNA, one strand shown			binding	binds
GGGAGACCUAGCCUCAUAUAAUCGUUGUCCAGAAUUGUAUAUAUUCGUAGCAUAAGUUUUCCAAACAUUAUUUUGUUGUCGAAAAUUGUACAUAAGCCAAUUAAGCCGCUAAUUCU (ssRNA)	brat 756-1037 R875A (Drosophila melanogaster, UniProt Q8MQJ9)	EMSA				binding	no binding
TGTGAATAATGAGACAAGACTTATTATATCAGCCTTGATTTGCAGTGTCAAGAGGTAAATGTTTTTATTTATCTCTCGTGACGACTTTTATAATG (dsDNA)	sigA	EMSA	double-stranded DNA, one strand shown			binding	binds
AGUUCCAUGAUGUUUUCAAACUCUAUUACCUACAUUAUUUGAAC (structured RNA; hairpin, large stem-loop)	BAZ2A eAT-hook	MST		50 nM RNA		K1/2	0.187 ± 0.01 µM
epidermal growth factor	MDCK	transwell transcytosis		concentration not given, 120 min, pH 7.4	baseline: added tracer	transport apical to basal	< 1%
